Experimental data collected from several papers.
Compare with care: the assays were run in different laboratories.
Organism: Pseudomonas aeruginosa

| Structure (SMILES) | test | test system | conditions | MIC |
| --- | --- | --- | --- | --- |
| CC(C)C[C@@H]1NC(=O)[C@@H](CC(C)C)NC(=O)[C@H](CCN)NC(=O)[C@@H](NC(=O)[C@H](CCN)NC(=O)[C@@H](N)[C@@H](C)O)CCNC(=O)[C@H]([C@@H](C)O)NC(=O)[C@H](CCN)NC(=O)[C@H](CCN)NC1=O | broth microdilution | ATCC 10145, cation-adjusted Mueller-Hinton broth | – | > 138 µM |
| CC1(C)[C@H](NC(=O)/C(=N\OCC(=O)N2CCC[C@@H]2C(=O)O)c2nsc(N)n2)C(=O)N1OS(=O)(=O)O | agar dilution | ATCC 27853 | – | > 64 µg/mL |
| CCCCCC[N+](C)(C)CCCCCCCCCCOc1cc(OCCCCCCCCCC[N+](C)(C)CCCCCC)cc(OCCCCCCCCCC[N+](C)(C)CCCCCC)c1.[Br-].[Br-].[Br-] | – | PAO1 | – | 8 µM |
| COc1ccc2ccc(O)c(/C=N/[C@H]3CCCC[C@H]3/N=C/c3c(O)cccc3OC)c2c1 | microbial growth, broth dilution | – | – | > 40 µM |
| CC[C@H]1OC(=O)[C@H](C)[C@@H](O[C@H]2C[C@@](C)(OC)[C@@H](O)[C@H](C)O2)[C@H](C)[C@@H](O[C@@H]2O[C@H](C)C[C@H](N(C)C)[C@H]2O)[C@](C)(O)C[C@@H](C)C(=O)[C@H](C)[C@@H](O)[C@]1(C)O | microbial growth, broth dilution | – | – | 8 µg/mL |
| COc1ccc2ccc(O)c(/C=N/[C@H]3CCCC[C@H]3/N=C/c3cccc(F)c3O)c2c1 | microbial growth, broth dilution | – | – | > 40 µM |
| CC1(C)[C@H](NC(=O)/C(=N\OCC(=O)N2CCC(C(=O)O)C2)c2nsc(N)n2)C(=O)N1OS(=O)(=O)O (stereo partly drawn) | agar dilution | PAO1 | – | > 64 µg/mL |
| COc1cc(C(=O)Nc2ccc(C(=O)O)cc2)ccc1NC(=O)c1ccc(NC(=O)[C@H](Cc2c[nH]nn2)NC(=O)c2ccc(NC(=O)/C(C)=C/c3ccc(O)cc3)cc2)cc1 | broth microdilution | ciprofloxacin-sensitive | – | 32 µg/mL |
| O=c1c(O)ccc(-c2ccccc2)cc1O | broth microdilution | ATCC 27853, CAMHB | 16 to 24 h, ≥80% growth inhibition | > 71.4 µM |
| CC[C@H]1OC(=O)[C@H](C)[C@@H](OC(=O)Cc2c(F)cc([N+](=O)[O-])cc2F)[C@H](C)[C@@H](O[C@@H]2O[C@H](C)C[C@H](N(C)C)[C@H]2O)[C@](C)(OC)C[C@@H](C)C(=O)[C@H](C)[C@@H](O)[C@]1(C)O | – | DSM 50071 | added: colistin sulfate at 0.5 x MIC | 16 µM |
| COc1cccc(OC)c1C(=O)N[C@@H]1C(=O)N2[C@@H]1SC(C)(C)[C@@H]2C(=O)O | microbial growth, broth dilution | 27853 | – | > 128 µM |
| CC1(C)C(NC(=O)C(=NOC2(C(=O)O)CCC2)c2csc(N)n2)C(=O)N1OS(=O)(=O)O (stereo not drawn) | agar dilution | PAO1 | – | 1 µg/mL |
| CCCCCC(=O)Oc1c(C)c(OC)c2c(/C=C/c3ccccc3)c(CCCC)c(=O)oc2c1C | microbial growth, broth dilution | ATCC27853 | – | 5000 µg/mL |
| CC1(C)[C@H](NC(=O)/C(=N\OCC(=O)N2CCC(C(=O)O)CC2)c2csc(N)n2)C(=O)N1OS(=O)(=O)O | agar dilution | ATCC 27853 | – | > 64 µg/mL |
| CCOc1c(NC(=O)c2ccc(NC(=O)c3ccc(NC(=O)[C@H](Cc4c[nH]nn4)NC(=O)c4ccc(NC(=O)/C(C)=C/c5ccc(O)cc5)cc4)cc3)c(OC)c2O)ccc(C(=O)O)c1O | broth microdilution | ciprofloxacin-resistant | – | 4 µg/mL |
| CCCCCCCCCCCC[N+](C)(C)CCCCCCCCCCOc1cc(OCCCCCCCCCC[N+](C)(C)CCCCCCCCCCCC)cc(OCCCCCCCCCC[N+](C)(C)CCCCCCCCCCCC)c1.[Br-].[Br-].[Br-] | – | PAO1 | – | 250 µM |
| CC[C@H]1OC(=O)[C@H](C)[C@@H](OC(=O)Cc2ccc(N)cc2)[C@H](C)[C@@H](O[C@@H]2O[C@H](C)C[C@H](N(C)C)[C@H]2O)[C@](C)(OC)C[C@@H](C)C(=O)[C@H](C)[C@@H](O)[C@]1(C)O | microbial growth | ATCC27853 | – | > 32 µg/mL |
| CN[C@H](CC(C)C)C(=O)N[C@H]1C(=O)N[C@@H](CC(N)=O)C(=O)N[C@H]2C(=O)N[C@H]3C(=O)N[C@H](C(=O)N[C@H](C(=O)O)c4cc(O)cc(O)c4-c4cc3ccc4O)[C@H](O)c3ccc(c(Cl)c3)Oc3cc2cc(c3O[C@@H]2O[C@H](CO)[C@@H](O)[C@H](O)[C@H]2O[C@H]2C[C@](C)(NCc3ccc(OCc4cn(CC(=O)N[C@H](C(=O)N[C@@H](CCN)C(=O)N[C@H]5CCNC(=O)[C@H]([C@@H](C)O)NC(=O)[C@H](CCN)NC(=O)[C@H](CCN)NC(=O)[C@H](CC(C)C)NC(=O)[C@@H](CC(C)C)NC(=O)[C@H](CCN)NC5=O)[C@@H](C)O)nn4)c(OC)c3)[C@H](O)[C@H](C)O2)Oc2ccc(cc2Cl)[C@H]1O | broth microdilution | ATCC 10145, cation-adjusted Mueller-Hinton broth | 18 to 20 h, 37 °C, 0.002% polysorbate 80 | 64 µg/mL |
| COc1ccc2ccc(O)c(/C=N/[C@H]3CCCC[C@H]3/N=C/c3cc(C)ccc3O)c2c1 | microbial growth, broth dilution | – | – | > 40 µM |
| CC[C@H]1OC(=O)[C@H](C)[C@@H](OC(=O)Cc2c(F)cccc2F)[C@H](C)[C@@H](O[C@@H]2O[C@H](C)C[C@H](N(C)C)[C@H]2O)[C@](C)(OC)C[C@@H](C)C(=O)[C@H](C)[C@@H](O)[C@]1(C)O | – | DSM 50071 | compound alone | > 128 µM |
| CCn1cc(C(=O)O)c(=O)c2cc(F)c(N3CCNCC3)cc21 | microbial growth, broth dilution | PAO1 | – | 0.125 µg/mL |
| CCCCCCCC(=O)Oc1c(C)c(OC)c2c(/C=C/c3ccccc3)c(CCCCCC)c(=O)oc2c1C | microbial growth, broth dilution | ATCC27853 | – | 5000 µg/mL |
| COc1cc(C(=O)Nc2ccc(C(=O)O)c(O)c2OC)ccc1NC(=O)c1ccc(NC(=O)[C@H](Cc2c[nH]nn2)NC(=O)c2ccc(NC(=O)/C(C)=C/c3ccc(O)cc3)cc2)cc1 | broth microdilution | ciprofloxacin-sensitive | – | 16 µg/mL |
| CCCCCCC#Cc1cncc(-c2nnc(SCc3cc([N+](=O)[O-])cc([N+](=O)[O-])c3)n2C)c1 | microbial growth, broth dilution | DSM1128 | – | > 64 µg/mL |
